Experimental data pooled from the literature.
Each numbered part is a random draw from the data of one study; scales do not carry over between parts. Substitutions count along the parent as printed.

Series 1
Target: RNA binding protein fox-1 homolog 2, RRM domain, GST-SBP tag (RBFOX2, Homo sapiens, UniProt O43251-10, residues 100-194)
Technique: RNA Bind-n-Seq
Form: RNA
Matrix: in vitro
Concentration: 365 nM
Setting: natural RNA segment, single round, ends assumed
Baseline: no-protein control
Direction: higher = stronger binding
Constant ends, left off below: GGGAGUUCUACAGUCCGACGAUC … UGGAAUUCUCGGGUGCCAA
Target sequence (chain): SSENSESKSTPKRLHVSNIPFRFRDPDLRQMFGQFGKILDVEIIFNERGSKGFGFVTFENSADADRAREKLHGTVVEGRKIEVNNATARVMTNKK
Sequence | RBNS enrichment (R)
AAAUAAAUUUCAUUUAUGAUUUUCUCAUCAACAUUUUCUUUGCUCUGUUUGUAGCUGAAUGUUACAUUUUUUUAAAAAUCUCUGUUCAAGCCAGAAGAGUUGAUUAUGAG | 0.368
AAGAGCUGGUCUGGAGUGUCUCCUCACAGUGACCUCUGAGGCCUCAGAAUAGCCUGCCUAAUAAGAAGGACUUCGAACCAUUCCCUAUGGCCUCAUCUGGGACUGUUGGU | 0.21
ACCACCCUGCCUCGUUUCCACCAAGCAUUCCAGUAGCCCCCAUGAAGGUCCCCCAACUCAGUUUUUUGCUUCUGCCAGGGAGCCUAAGUACCCACCCCGUCCACCUCCCC | 0.948
CCCCAACUCCCCUCACCAGGAGAGGCACCUGCUUGGUGCCGCCCAGGGAAGGGGCUCAGGCCUGACGGAAGGCCUGUUCUGUGUGUGCCGCCGGGCGACGUGCAUUGAUG | 0.249
UUUUCAUAAGUAACACAGAUUCCCUGAUUUUUAAAAACUAAAAAUACAGCUAAACCUUUCUUAUGUAUAAAGUAUGCCUAUCAUAUACAGGGAGAGGUGGGUAAUAAACU | 0.725
CAAUCCAGGCUCCAGCACCCCUCUGCAGACUACACAGGGGGUCAGUGUGUGUGUGUGACUAGACCUCUCAUUUUAAGCUCUAGUCGUAGCACUUUUUCAGAGUCUCCUAG | 0.39
CGCAUUUUUGCAUGGUAAGGAAAAGGCUUACUUGCCCUUCAGCUCAUAAAAGCAGAAGGUGUGCUAUUCACAGUACCAUGCGAGUAGCCCACAGUUAAUUCCCGGCAGAU | 0.934
UCAUCCCAGCACACUUCUAAUAGACCCCUUCAGUCACGGAGGGAGUGCCCCAAGGUUGGACAGGCACAUUCCCCUUGGACAGAGACUGCAAGUUGUGGCUUAUUUUCCUG | 0.83
UCAUCACAUACCUAUUUUGUAACAAGUGAGCUUGAGAAAAUUAAGAAAAUAUAUACAUUUAUUUAGCCAAAAGGAAUGAAGAAAGCAUUUACACAUUUGUGUUUUAUCUG | 0.725
UUAUCAAUAAUCUAACCGACAAAGAUCAUAUCCAUGUGUAUGUGGUUAGACAUUUUUAUUUCAUUGACUAACCCAGGACAGUUUCAGUGAUGCAAAUUGUGUGCCCUCUG | 0.492
UAAUGUAGGAAUACAAAUGGUAAAUUAGCAGCACAUAUAAUUUUUUUUAAAUUUAUGAUCCAUUUUGUAUGGUCUCAAGUUGGAUGACCUCAUUACUAAUAUUUGUUGUA | 0.859
UCCUAUCUUUUAUUUCAUUCAUAUCCUCCGCCCUUUUUGUCCUAGAGUGAGAGUUUGGAAGGUGUCCAAAUUUAAUGUAGACAUUAUCUUUUGGCUCUGAAGAAGCAAAC | 0.984

Series 2
Target: Sal-like protein 4, full length isoform B (SALL4, Homo sapiens, UniProt Q9UJQ4-2, residues 1-616)
Technique: universal PBM
Form: double-stranded DNA, one strand shown
Matrix: in vitro
Concentration: not given
Setting: 8-mer, flanks averaged, mean of replicates
Direction: higher = stronger binding
Sequence | E-score
GGTGCATA | 0.0442
AAGGAAAA | 0.228
ACAAATCA | 0.218
CCGCTGAC | -0.245
AAGCTATC | 0.11
GTTTAAAC | 0.238
CGTCTCAC | -0.244
ACGATCCC | -0.179
ACCTTCTC | -0.093
CTGCTAAA | -0.042
TAAGTCTA | 0.058
GACAAGGC | -0.159
ACTTATCA | 0.101
CACTAAAG | 0.0136
ACTTTCTA | 0.226
CTACCGAC | -0.134
AGTACACC | 0.0214
GCAGAATA | 0.163
ATGCGACC | -0.0178

Series 3
Target: RING finger protein unkempt homolog, zinc fingers 1-6, GST-SBP tag (UNK, Homo sapiens, UniProt Q9C0B0, residues 30-357)
Technique: RNA Bind-n-Seq
Form: RNA
Matrix: in vitro
Concentration: not given
Setting: RNA with constant flanks, ends assumed
Baseline: input RNA pool
Direction: higher = stronger binding
Constant ends, left off below: GGGAGUUCUACAGUCCGACGAUC … CAACAGAGGAUUGAGCAUCA
Residues (chain): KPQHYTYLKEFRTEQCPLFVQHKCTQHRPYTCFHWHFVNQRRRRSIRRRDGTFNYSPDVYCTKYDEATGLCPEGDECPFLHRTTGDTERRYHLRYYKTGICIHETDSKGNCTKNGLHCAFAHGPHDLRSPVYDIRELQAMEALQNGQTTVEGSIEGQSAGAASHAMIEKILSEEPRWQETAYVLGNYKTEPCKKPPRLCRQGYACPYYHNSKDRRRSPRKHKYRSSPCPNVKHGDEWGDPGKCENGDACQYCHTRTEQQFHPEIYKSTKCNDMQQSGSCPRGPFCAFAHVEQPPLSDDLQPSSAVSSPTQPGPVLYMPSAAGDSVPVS
Sequence | bound/input enrichment
AAUGGGAAAACGGUAUAUGCACCAUCCCCAAAUUCAGAUGAUUUCAACCGUGAAUCUCCCCGUUAUCCAUCUCCUAAGCCACCAACCAGUAUGUUCGCUAGCACUUUCUUUAUGCAAGAU | 1.25 ratio
GCCAGGGGAGUUCUCAAAUGUGACAUCACAGACCUUCAGAUCAUUUGUUCUUUGGGAUACCGCAUUCUUCUCAUGGUCACAUGUACUGUGUAUGCCAUCAAGACUCGGGGUGUACCAGAG | 0.145 ratio
GUGACAGACAUUAAAAUUUACCCUCAGAAAAGAACUGUAGCAGUGACAAUAAUCCCUUCUACCGUGAAUGCCAAUCAGAUAAAAGAGCUGGUUCCAGAACUCAGUUUAGAUACUGGGACA | 0.284 ratio
UUUUAUGGCAUGUAAUGGUGUUUGGUAAUAUUUUAAUGUAGAAUUUGAUUAUUUCAGCAACCGUAAUUUUGAGAUAUUCUUUGAAUGAAAAGUGUCUUCGUUUCUAUGAUACAGGUCAUU | 0.471 ratio
UGUGGCCUUUCUGAGGAGAAAGCUGUGGAGAAGUUUGGGGAAGAAAAUAUUGAGGUUUACCACCGUUACUUUUGGCCAUUGGAAUGGACGAUUCCGUCAAGAGAUAACAACAAAUGUUAU | 0.146 ratio
GCGGCCUCAUUGCUCCGUUUUCAGAGUACCUUGGUAAUAGCUGAGCAUGCAAAUGAUUCCCCCGCACCCAUUACUCUAAAUACUAUCACUGCAGCUGGACGUCUUGGAGGUGAAGUGUCC | 0.324 ratio
CUUACCAAGCACUUGCUGAAGACAGUGUGUACCGAUAUCACUAACCUCAUGUUCAACUUCCCCGCCUCAGAUUUCCUCAUGGCAGUGGAGGAGCCUGCAGCCAUUACAAGUGAUAUAAGA | 0.24 ratio
GAACAUGUCGACAAGCUGAAAAUCCCCCCUGAAGAGAUGAAGGAAAUGGAGCAGAAGUUGAUCCGAGACUUCCAAGAGUACGUGGAGCCAGGAGAAGACUUCCCAGCCUCCCCUCAGCGA | 0.086 ratio
CUGCAUUUUGCAUGCAUAGUUUAAGAUUACUGGGUGCAGAGAGGGUUCAUUUCUCAAAAUUCCGUCACUGAUAAAUCAUUGUAACGGAUCAUUAUAAAAAUCAUAAACAUAUUUUGUUUG | 0.29 ratio

Series 4
Target: Histone acetyltransferase KAT6A, winged helix 2, GST fusion (KAT6A, Homo sapiens, UniProt Q92794, residues 85-181)
Technique: protein binding microarray
Form: double-stranded DNA, one strand shown
Matrix: in vitro
Concentration: not given
Setting: 8-mer, flanks averaged, mean of 2 arrays, mostly near background
Baseline: not given
Direction: higher = stronger binding
Target sequence (chain): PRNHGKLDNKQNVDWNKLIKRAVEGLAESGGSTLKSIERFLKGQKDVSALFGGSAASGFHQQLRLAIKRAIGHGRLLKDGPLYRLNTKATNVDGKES
Sequence | E-score
ATACTAGC | 0.0627
TAATAAAA | 0.237
AACTGACC | -0.137
GCATGATA | 0.0564
GTCGAGAA | 0.0501
GCAGCTTA | 0.151
ATATTTAC | 0.219
AAATACAA | 0.0192
CTGAACCA | 0.0678
CAGCAAAG | 0.121
TCTCCTCA | -0.0337
TCGCGCAA | 0.144
CCGGGATC | 0.17
AATACACC | -0.108
CGAATATA | -0.0297
TCTAACCA | -0.0391
AGCTCTGA | -0.0754
AAGGGTGT | 0.0337
GGGTATGA | -0.0142
CGACATGA | 0.0279
AATAGGGC | -0.0417
AGGGTTCA | -0.06
AGTGATGA | -0.0158
CATGCCCG | 0.118
GAGCAACA | 0.112

Series 5
Target: CCND2, cyclin fold, Cln2 fusion (human)
Technique: yeast growth competition, sequencing
Matrix: yeast
Setting: weak parent motif
Baseline: not given
Direction: higher = stronger binding
Parent: SAMHD1 docking peptide (human); ASKSRVQLFKDDP; partner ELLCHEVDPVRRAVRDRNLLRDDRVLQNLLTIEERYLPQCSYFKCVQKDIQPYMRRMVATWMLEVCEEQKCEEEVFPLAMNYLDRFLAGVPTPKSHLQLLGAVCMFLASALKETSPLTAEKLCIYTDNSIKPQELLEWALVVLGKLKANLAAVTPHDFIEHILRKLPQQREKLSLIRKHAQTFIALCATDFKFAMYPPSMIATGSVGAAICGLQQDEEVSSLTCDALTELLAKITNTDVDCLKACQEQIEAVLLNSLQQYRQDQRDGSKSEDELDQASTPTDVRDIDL
Change | normalised enrichment score
R5Y | -0.0657
R5L | -0.187
D12A | 0.185
S2K | 0.0419
K3S | -0.0949
S4G | 0.0274
S4V | 0.111
D11F | 0.27
S2W | 0.195
K3G | 0.161
K3P | 0.276
F9H | 0.0716
F9P | 0.543
K10C | 0.429
F9L | 0.201
D11Y | 0.169
V6L | 0.116
K3T | -0.123
K10W | 0.265
D12Y | 0.554
S2M | 0.124
F9Q | 0.0388

Some of these lines once more (series 2):
Sequence | E-score
AAGCTATC | 0.11
ACCTTCTC | -0.093
GGTGCATA | 0.0442
GCAGAATA | 0.163
ACGATCCC | -0.179
ATGCGACC | -0.0178
CTACCGAC | -0.134
CTGCTAAA | -0.042
CCGCTGAC | -0.245
AGTACACC | 0.0214
GTTTAAAC | 0.238
GACAAGGC | -0.159
